# Measurements pooled from the literature.
# Every numbered part comes from another study and shows a few of its results, in no order. Positions count from the first letter of the parent shown.

# Study 1
# Target: CEBPB, bZIP domain (human)
# Method: DHFR protein complementation
# Medium: yeast
# Notes: single substitutions, most at no-binding floor
# Baseline: wild-type JUN-FOS pair
# Reading: higher = stronger binding
# Parent: JUN, bZIP domain (human); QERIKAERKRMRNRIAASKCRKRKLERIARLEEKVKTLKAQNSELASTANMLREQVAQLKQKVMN; partner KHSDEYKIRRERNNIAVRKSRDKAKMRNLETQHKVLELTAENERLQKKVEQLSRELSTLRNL
Substitution,binding fitness [natural log]
K34W,-1.42
E32D,-1.21
A49Y,-1.19
N42W,-1.54
S43M,-1.35
V35I,-1.36
L38N,-1.5
K34E,-1.36

# Study 2
# Target: RING finger protein unkempt homolog, zinc fingers 1-6, SBP tag (UNK, Homo sapiens, UniProt Q9C0B0, residues 30-357)
# Sequence of UniProt Q9C0B0 (30-357, looked up): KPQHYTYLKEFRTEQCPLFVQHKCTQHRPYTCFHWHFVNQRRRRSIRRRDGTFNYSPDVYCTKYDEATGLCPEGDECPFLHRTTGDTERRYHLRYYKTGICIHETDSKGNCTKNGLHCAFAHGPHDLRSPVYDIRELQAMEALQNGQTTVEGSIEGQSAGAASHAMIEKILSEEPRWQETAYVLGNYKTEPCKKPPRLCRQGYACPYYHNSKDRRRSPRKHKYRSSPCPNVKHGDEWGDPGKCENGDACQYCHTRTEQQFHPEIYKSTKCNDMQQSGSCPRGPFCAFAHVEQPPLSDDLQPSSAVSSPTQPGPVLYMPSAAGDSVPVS
# Method: RNA Bind-n-Seq
# Molecule type: RNA
# Medium: in vitro
# Concentration: 100 nM
# Notes: RNA with constant flanks, vertebrate orthologous sites, ends assumed
# Baseline: input RNA pool
# Reading: higher = stronger binding
# Constant ends, left off below: GGGAGUUCUACAGUCCGACGAUC … CAACAGAGGAUUGAGCAUCA
Sequence,bound/input enrichment [ratio]
GUCAUCCGAUUGGAUGAAGACCGUCCCGAGUUACAACCAAACCAACAGCUCCAUGGACUUCAGAAAUUACAUGCUGAGAGAUGAGAAUCUGGAACCACUGCCCCAAAACUGGGAGAUGGC,0.243
GUGAGGGUCUACUGACCACUCACUGUUACGUCUGGUAUCUGUAAACACUCUUUUUGUUCUUAGUCUUUUUCUUGUAUAAUUGAUGUUCUUUAAAAUUGUUAAUGUAUAACAGGGCUUAUG,2.55
AGUGGAUGCAGCAUAGAAACAUCCAAGGUACUGACUGCGGCUUUAGAUACUUCAUUAGUGUGAAAGUCACAUUUCUCUAUGUGAGGAUACAUAUCUUUGAGUAAAUUACAUCUUCAACUU,0.592
CCUCAUUUUCUCACUCUGUAUGAGUGGGCAAUUAUUUUUUUGUUUUUUUUACAUUUUGUAUAGAAACAAAUUCAUUUAAACAAACUUAUUAUUAUUAUUUUUUACAAAAUAUAUCUAUAG,0.883
CCCUGUGAGGGUCUCCUGACCACUCACUGUUACGUCUGCUAUCUGUAAACACUUCUGUCUUAGUUUUCUCAUUGUAUAAUUGAUGUUCUUUAAAAUUGUCAAUGUAUAACAGGGCUUAUG,1.23
UAUCAGUAGAAUUACAUAAUACUAAAGUUGCCGUUGAAAGAAUAUCCAAGUAUGUGUUGGUAGUUACUAAAAGAAUUAUAGCUGUUAUUGCCUUGUAUUUAUAGUCCUUGUUUCAGGUUU,1.03
GGACCUCCUGAACUUCUGGCUUUUAAGUGUGGUUGUUUUAGAUCCUGGUGUUAUUUUCCUUAUAAUUUUCCCUCGUUUCCCGUCUUCUCCUCCCCUCUUCUCAAGAUUUGACUCAUGGAU,1.32
UUAGGUAGGGGUAACCAUUAAUUUACUUAAACUAAAGAAAUGAAAUGUUGAAAAUCAUAUUAGUACUAAGUUUGGUUGGAAAAUUUCUCCAGCUAAACUUCCUUCUCUCAUCCUCCAUCC,1.18

# Study 3
# Target: CCNE2, cyclin fold, Cln2 fusion (human)
# Method: yeast growth competition, sequencing
# Medium: yeast
# Notes: strong parent motif
# Baseline: not given
# Reading: higher = stronger binding
# Parent: viral docking peptide; TSVRRALFTGGSD; partner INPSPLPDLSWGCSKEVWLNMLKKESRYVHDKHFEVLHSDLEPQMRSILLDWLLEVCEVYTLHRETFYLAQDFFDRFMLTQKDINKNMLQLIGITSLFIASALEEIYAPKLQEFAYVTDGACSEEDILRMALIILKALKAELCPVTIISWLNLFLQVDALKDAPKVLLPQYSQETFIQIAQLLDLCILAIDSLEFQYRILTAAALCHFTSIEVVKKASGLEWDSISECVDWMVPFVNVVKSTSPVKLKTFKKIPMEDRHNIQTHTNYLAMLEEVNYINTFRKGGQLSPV
Substitution,normalised enrichment score
G11R,2.75
S12V,3.9
A6E,2.06
A6N,3.31
S2D,2.38
F8Q,-0.0201
S12E,4.45
A6Y,0.345
S2A,2.58
G10T,3.98
S12A,3.78
L7H,0.559
G11F,3.34
S12H,3.57

# Study 4
# Target: vanadate, free oxyanion
# Method: microfluidic competitive inhibition
# Medium: in vitro, cell-free expressed
# Concentration: not given
# Notes: derived from inhibition constants, unchanged parent 676 nM
# Reading: lower = stronger binding
# Parent: PafA, mature enzyme, eGFP fusion (Elizabethkingia meningoseptica, UniProt Q9KJX5); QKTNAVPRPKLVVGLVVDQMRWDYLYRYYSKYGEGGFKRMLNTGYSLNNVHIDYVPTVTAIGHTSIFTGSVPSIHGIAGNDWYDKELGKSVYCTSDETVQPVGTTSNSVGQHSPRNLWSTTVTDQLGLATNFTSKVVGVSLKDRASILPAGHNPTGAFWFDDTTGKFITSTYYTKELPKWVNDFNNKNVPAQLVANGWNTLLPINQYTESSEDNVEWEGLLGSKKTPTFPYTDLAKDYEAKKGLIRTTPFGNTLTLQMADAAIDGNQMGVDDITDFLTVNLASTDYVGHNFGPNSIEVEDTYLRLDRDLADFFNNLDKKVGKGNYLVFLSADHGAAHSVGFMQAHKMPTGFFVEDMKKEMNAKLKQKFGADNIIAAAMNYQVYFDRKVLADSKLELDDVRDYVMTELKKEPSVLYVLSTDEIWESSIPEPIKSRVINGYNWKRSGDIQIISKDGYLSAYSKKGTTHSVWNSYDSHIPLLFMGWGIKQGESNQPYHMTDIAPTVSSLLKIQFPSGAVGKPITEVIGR
Substitution,oxyanion analog dissociation constant [nM]
G454V,679
A336V,562
P9V,771

# Some of these lines once more (study 2):
Sequence,bound/input enrichment [ratio]
AGUGGAUGCAGCAUAGAAACAUCCAAGGUACUGACUGCGGCUUUAGAUACUUCAUUAGUGUGAAAGUCACAUUUCUCUAUGUGAGGAUACAUAUCUUUGAGUAAAUUACAUCUUCAACUU,0.592
CCCUGUGAGGGUCUCCUGACCACUCACUGUUACGUCUGCUAUCUGUAAACACUUCUGUCUUAGUUUUCUCAUUGUAUAAUUGAUGUUCUUUAAAAUUGUCAAUGUAUAACAGGGCUUAUG,1.23
UUAGGUAGGGGUAACCAUUAAUUUACUUAAACUAAAGAAAUGAAAUGUUGAAAAUCAUAUUAGUACUAAGUUUGGUUGGAAAAUUUCUCCAGCUAAACUUCCUUCUCUCAUCCUCCAUCC,1.18
GUGAGGGUCUACUGACCACUCACUGUUACGUCUGGUAUCUGUAAACACUCUUUUUGUUCUUAGUCUUUUUCUUGUAUAAUUGAUGUUCUUUAAAAUUGUUAAUGUAUAACAGGGCUUAUG,2.55
CCUCAUUUUCUCACUCUGUAUGAGUGGGCAAUUAUUUUUUUGUUUUUUUUACAUUUUGUAUAGAAACAAAUUCAUUUAAACAAACUUAUUAUUAUUAUUUUUUACAAAAUAUAUCUAUAG,0.883
